# Results from different studies.
# Compare with care: the assays were run in different laboratories. ± gives the spread as reported.
# Chain of UniProt Q96SW2 (whole entry, looked up): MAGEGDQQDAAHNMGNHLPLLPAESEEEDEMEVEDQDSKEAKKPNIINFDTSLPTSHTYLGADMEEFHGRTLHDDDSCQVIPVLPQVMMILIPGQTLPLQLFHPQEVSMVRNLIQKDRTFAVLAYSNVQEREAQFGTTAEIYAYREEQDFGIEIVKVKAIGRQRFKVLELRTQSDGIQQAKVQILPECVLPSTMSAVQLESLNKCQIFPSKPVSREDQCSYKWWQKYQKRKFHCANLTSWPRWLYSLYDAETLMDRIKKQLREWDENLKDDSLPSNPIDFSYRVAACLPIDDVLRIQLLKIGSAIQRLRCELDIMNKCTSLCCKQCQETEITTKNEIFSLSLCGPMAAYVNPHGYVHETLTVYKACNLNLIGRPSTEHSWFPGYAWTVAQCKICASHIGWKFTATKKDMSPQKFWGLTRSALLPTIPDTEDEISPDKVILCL
# Chain of UniProt Q8N8S7 (whole entry, looked up): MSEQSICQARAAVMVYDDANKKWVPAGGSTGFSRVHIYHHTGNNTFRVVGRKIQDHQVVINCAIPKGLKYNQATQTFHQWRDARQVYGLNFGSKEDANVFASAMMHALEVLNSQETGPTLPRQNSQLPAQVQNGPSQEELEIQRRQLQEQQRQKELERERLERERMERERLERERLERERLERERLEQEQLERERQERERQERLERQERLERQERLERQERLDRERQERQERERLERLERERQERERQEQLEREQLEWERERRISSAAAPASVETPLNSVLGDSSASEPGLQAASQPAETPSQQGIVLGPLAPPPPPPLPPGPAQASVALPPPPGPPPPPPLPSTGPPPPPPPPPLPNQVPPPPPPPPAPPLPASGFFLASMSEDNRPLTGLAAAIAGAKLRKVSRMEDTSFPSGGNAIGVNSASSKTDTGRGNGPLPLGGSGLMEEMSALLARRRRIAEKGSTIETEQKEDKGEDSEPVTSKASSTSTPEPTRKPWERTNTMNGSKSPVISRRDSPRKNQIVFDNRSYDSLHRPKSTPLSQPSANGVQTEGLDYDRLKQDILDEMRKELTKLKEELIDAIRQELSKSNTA
# Chain of UniProt P57059 (whole entry, looked up): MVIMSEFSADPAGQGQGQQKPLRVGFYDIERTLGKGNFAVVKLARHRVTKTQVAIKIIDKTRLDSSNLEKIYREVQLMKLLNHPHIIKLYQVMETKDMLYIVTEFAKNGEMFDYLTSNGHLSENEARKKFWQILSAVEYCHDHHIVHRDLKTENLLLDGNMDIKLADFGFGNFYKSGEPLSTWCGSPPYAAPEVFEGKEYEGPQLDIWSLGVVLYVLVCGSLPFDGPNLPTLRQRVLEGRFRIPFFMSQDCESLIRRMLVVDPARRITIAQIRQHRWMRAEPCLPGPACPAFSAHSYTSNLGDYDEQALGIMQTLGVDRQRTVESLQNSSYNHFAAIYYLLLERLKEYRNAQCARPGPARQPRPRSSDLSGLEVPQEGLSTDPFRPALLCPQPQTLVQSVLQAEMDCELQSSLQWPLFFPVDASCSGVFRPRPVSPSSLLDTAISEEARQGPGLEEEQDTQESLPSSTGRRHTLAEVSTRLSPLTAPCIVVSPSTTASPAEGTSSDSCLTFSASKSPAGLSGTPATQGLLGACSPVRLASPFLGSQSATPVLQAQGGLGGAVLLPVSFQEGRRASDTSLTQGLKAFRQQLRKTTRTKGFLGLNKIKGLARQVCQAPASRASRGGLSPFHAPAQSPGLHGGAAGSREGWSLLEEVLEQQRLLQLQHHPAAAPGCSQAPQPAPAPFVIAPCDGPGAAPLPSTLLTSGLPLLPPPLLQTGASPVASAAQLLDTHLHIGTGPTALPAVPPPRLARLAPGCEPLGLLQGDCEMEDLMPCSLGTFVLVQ
# Chain of UniProt P00811 (whole entry, looked up): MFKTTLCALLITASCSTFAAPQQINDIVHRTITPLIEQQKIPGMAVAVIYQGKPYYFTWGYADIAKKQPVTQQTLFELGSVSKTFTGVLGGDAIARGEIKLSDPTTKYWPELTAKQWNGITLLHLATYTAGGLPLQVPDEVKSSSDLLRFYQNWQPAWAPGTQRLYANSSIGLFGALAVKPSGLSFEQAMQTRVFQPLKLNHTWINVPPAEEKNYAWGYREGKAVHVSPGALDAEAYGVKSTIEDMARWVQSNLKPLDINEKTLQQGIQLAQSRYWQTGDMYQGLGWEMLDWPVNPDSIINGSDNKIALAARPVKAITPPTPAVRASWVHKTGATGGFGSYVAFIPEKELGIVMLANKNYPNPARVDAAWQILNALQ
# Chain of UniProt P34972 (whole entry, looked up): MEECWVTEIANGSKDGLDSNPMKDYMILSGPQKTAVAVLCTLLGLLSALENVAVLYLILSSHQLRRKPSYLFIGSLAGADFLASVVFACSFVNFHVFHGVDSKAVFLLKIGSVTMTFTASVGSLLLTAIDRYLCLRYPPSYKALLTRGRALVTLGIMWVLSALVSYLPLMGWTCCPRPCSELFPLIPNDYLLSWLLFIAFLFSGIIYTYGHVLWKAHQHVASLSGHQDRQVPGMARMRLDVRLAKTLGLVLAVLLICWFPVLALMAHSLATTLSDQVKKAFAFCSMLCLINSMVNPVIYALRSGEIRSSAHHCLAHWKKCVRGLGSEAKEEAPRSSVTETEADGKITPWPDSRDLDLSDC
# Chain of UniProt Q9LIR4 (whole entry, looked up): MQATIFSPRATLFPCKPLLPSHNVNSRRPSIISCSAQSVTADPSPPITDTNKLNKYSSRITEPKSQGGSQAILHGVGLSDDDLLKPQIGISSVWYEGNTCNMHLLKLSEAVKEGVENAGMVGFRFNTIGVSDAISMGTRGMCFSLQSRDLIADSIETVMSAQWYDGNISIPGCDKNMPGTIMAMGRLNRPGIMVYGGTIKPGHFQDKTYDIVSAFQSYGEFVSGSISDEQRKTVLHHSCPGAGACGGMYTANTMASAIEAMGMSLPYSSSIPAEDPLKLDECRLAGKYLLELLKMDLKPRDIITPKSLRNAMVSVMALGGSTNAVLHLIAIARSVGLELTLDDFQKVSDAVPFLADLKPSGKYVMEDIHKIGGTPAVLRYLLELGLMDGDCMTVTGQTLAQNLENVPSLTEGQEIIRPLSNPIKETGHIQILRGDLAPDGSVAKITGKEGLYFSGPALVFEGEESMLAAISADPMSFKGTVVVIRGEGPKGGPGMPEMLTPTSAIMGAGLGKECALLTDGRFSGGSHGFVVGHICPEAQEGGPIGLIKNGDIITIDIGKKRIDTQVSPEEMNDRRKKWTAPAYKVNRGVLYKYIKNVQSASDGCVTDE
# Chain of UniProt P55072 (whole entry, looked up): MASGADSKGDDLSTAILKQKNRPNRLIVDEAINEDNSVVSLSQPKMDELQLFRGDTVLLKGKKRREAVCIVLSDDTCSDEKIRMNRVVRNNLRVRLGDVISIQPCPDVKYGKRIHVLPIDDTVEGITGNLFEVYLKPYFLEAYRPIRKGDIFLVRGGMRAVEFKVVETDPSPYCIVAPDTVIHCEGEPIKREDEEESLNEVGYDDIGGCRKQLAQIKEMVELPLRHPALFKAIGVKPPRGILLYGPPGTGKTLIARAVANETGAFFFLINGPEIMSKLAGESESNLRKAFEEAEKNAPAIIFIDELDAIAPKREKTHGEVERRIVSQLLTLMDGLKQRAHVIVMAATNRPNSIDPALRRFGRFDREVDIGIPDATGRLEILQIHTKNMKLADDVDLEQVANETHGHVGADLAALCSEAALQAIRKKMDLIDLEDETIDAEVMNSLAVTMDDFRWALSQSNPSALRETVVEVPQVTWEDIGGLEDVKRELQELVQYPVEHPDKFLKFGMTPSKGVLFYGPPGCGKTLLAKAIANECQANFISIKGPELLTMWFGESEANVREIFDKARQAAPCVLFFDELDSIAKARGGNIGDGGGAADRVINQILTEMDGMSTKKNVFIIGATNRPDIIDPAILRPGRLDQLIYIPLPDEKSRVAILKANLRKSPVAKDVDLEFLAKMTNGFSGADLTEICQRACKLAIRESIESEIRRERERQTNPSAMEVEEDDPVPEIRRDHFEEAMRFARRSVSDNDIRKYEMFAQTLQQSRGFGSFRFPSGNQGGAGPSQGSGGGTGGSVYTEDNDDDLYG
Compound,target or system,assay,system,setting,how to read,endpoint,result
CC(C)[C@H](NC(=O)[C@H](CCCNC(=N)N)NC(=O)[C@H](Cc1c[nH]c2ccccc12)NC(=O)CN)C(=O)N[C@@H](CO)C(=O)N[C@@H](CCC(=O)O)C(=O)N[C@@H](Cc1ccccc1)C(=O)NCC(=O)NCC(=O)NCC(=O)N[C@@H](CO)C(=O)N[C@@H](CCCCNC(=S)Nc1ccc2c(c1)C(=O)OC21c2ccc(O)cc2Oc2cc(O)ccc21)C(=O)O,cowpea mosaic virus,competitive phage ELISA,,,,Kd,~0.7 µM
C#CCN1C(=O)C(CC#C)(C(=O)OCC)Oc2ccccc21 (stereo not shown),"Dihydroxy-acid dehydratase, chloroplastic (DHAD, Arabidopsis thaliana, UniProt Q9LIR4)","binding, microscale thermophoresis",,25 °C,,Kd,83.2 µM
CC(=O)N[C@@H](Cc1ccccc1Cl)C(=O)N1CCC[C@H]1C(=O)N1CCC[C@H]1C(=O)N1CC[C@@H]2C=C[C@H]3CC[C@@H](C(=O)N[C@H](C(=O)N[C@@H](CCC(=O)O)C(=O)N[C@@H](CC(=O)O)C(=O)N[C@@H](CCC(=O)O)C(=O)N[C@@H](CC(C)C)C(N)=O)[C@@H](C)O)N3C(=O)[C@H]21,"Protein enabled homolog (ENAH, UniProt Q8N8S7)","binding, fluorescence",,,,Kd,0.6 µM
O=P(O)(O)Oc1c2c(c(OP(=O)(O)O)c3c1C1CC3c3cc4c(cc31)C1CC4c3ccccc31)C1CC2c2cc3c(cc21)C1CC3c2ccccc21,"VCP (Homo sapiens, UniProt P55072)","binding, ITC",,pH 7.4,,Kd,21.7 µM
Cn1c(C(C)(C)C)c/c(=N\C(=O)c2cc(C(F)(F)F)ccc2OCC(C)(C)O)n1CC1CCC1,"CNR2 (Homo sapiens, UniProt P34972)","binding, radioligand",,cell membranes,,Kd,0.00308 µM
CC[C@H](C)[C@H](NC(=O)[C@H](CCCCNC(=O)CN(CCNC(=O)CN(CCNC(=O)CN(CCNC(=O)CN(CCNC(=O)[C@H](CCCNC(=N)N)NC(C)=O)C(=O)Cn1ccc(N)nc1=O)C(=O)Cn1cnc2c(=O)[nH]c(N)nc21)C(=O)Cn1cnc2c(=O)[nH]c(N)nc21)C(=O)Cn1ccc(N)nc1=O)NC(=O)[C@H](C)NC(=O)[C@H](CCCNC(=N)N)NC(=O)[C@H](CCCCN)NC(=O)[C@H](CCC(N)=O)NC(=O)[C@H](CCC(N)=O)NC(=O)[C@H](CC(N)=O)NC(=O)[C@@H](NC(=O)[C@H](CCCN)NC(=O)[C@H](CC(N)=O)NC(=O)[C@@H]1CCCN1C(=O)[C@H](CC(=O)O)NC(=O)[C@H](CC(C)C)NC(=O)[C@H](C)NC(=O)[C@H](CS)NC(=O)[C@H](CCCC(=O)NCCN(CC(=O)NCCN(CC(=O)NCCN(CC(=O)NCCN(CC(N)=O)C(=O)Cn1cnc2c(=O)[nH]c(N)nc21)C(=O)Cn1ccc(N)nc1=O)C(=O)Cn1ccc(N)nc1=O)C(=O)Cn1cnc2c(=O)[nH]c(N)nc21)NC(=O)[C@H](Cc1c[nH]c2ccccc12)NC(=O)[C@H](Cc1ccc(O)cc1)NC(=O)[C@H](CCCNC(=N)N)NC(=O)[C@H](CC(N)=O)NC(=O)[C@H](CCCNC(=N)N)NC(=O)[C@H](CC1CCCCC1)NC(=O)[C@H](CCC(=O)O)NC(=O)[C@H](CCCCN)NC(C)=O)[C@@H](C)O)C(=O)N[C@@H](CCCNC(=N)N)C(=O)N[C@@H](CO)C(=O)N[C@H](C(=O)N[C@@H](Cc1ccc(O)cc1)C(=O)N[C@@H](CCC(=O)O)C(=O)N[C@@H](CCC(=O)O)C(=O)NCC(N)=O)[C@@H](C)CC,"ERBB2 (Homo sapiens, UniProt P04626)","binding, SPR",,,,Kd,0.11 µM
C=CC1CN(Cc2ccccn2)C(=O)C2CCCC1N2[S+]([O-])c1cc(Cl)cc(Cl)c1 (stereo not shown),"uncharacterized protein, residues 23-253 (Pseudomonas aeruginosa, UniProt Q9HYX8)","binding, competitive fluorescence polarization",,"30 min, protein 40 nM, with: fluorescent tracer 1 nM",,Kd,3.69 ± 0.35 µM
CS(C)(=O)=Nc1ccc(-c2ccc(-c3nc4cc(O[C@@H]5CO[C@H]6[C@@H]5OC[C@H]6O)[nH]c4cc3F)cc2)cc1,"SIK1 (Homo sapiens, UniProt P57059)","enzyme activity, inhibitor",,10 µM,,inhibition,1%
COc1ccccc1-c1n[nH]c2nc(NC3CCN(C(=O)Cc4ccc(F)cc4F)CC3)ncc12,,"bead binding, competition bead pull-down, refers to: LMJF.21.1760",Leishmania donovani extract,10 µM,baseline: vehicle,relative abundance,1.23
O=C1NC2(CC2)COc2ncc(F)cc2[C@H]2COCCN2c2ccn3ncc1c3n2,,,"Sprague-Dawley rat, female, serum","oral, 5 mg/kg/day, end of recovery, 4-week subacute toxicity",,serum total bilirubin,1.7 ± 0.3 µmol/L
CC(C)C(Nc1ncnc2c1oc1ccccc12)C(=O)O (stereo not shown),"Beta-lactamase (ampC, Escherichia coli K-12, UniProt P00811)",,,,,Kd,1500 µM
CC[C@H](C)[C@H](NC(=O)[C@H](CO)NC(=O)[C@H](Cc1ccc(O)cc1)NC(=O)[C@H](Cc1ccc(O)cc1)NC(=O)[C@H](CC(N)=O)NC(=O)CNC(=O)[C@H](CO)NC(=O)[C@H](Cc1ccc(O)cc1)NC(=O)[C@H](CO)NC(=O)[C@H](CO)NC(=O)[C@H](CC(N)=O)NC(=O)COCCOCCNC(=O)CN1CCN(CC(=O)O)CCN(CC(=O)O)CCN(CC(=O)O)CC1)C(=O)N[C@@H](CC(C)C)C(N)=O [copper-64 labelled],,dynamic PET,"KPC mouse Ptf1a-CreER tdTomato, pancreas","intravenous, 4.6 MBq/mouse, 1.1 min, 84 d after tamoxifen",,tissue uptake,13.3 %ID/mL
CC(C)C[C@H](NC(=O)[C@H](C)NC(=O)[C@H](CCC(=O)O)NC(=O)[C@@H](N)C(C)C)C(=O)N[C@@H](CC(C)C)C(=O)N[C@H]1CC(=O)NC1=O,"Protein cereblon, with DDB1 (CRBN, Homo sapiens, UniProt Q96SW2)",binding,,,,Kd,0.0345 µM

# Excerpt of the above:
Compound,target or system,assay,system,setting,how to read,endpoint,result
CC(C)[C@H](NC(=O)[C@H](CCCNC(=N)N)NC(=O)[C@H](Cc1c[nH]c2ccccc12)NC(=O)CN)C(=O)N[C@@H](CO)C(=O)N[C@@H](CCC(=O)O)C(=O)N[C@@H](Cc1ccccc1)C(=O)NCC(=O)NCC(=O)NCC(=O)N[C@@H](CO)C(=O)N[C@@H](CCCCNC(=S)Nc1ccc2c(c1)C(=O)OC21c2ccc(O)cc2Oc2cc(O)ccc21)C(=O)O,cowpea mosaic virus,competitive phage ELISA,,,,Kd,~0.7 µM
